Published values of several laboratories.
Protocols differ between the studies behind these lines. ± gives the spread as reported.

`C[C@H](NP(=O)(O)OC[C@H]1O[C@@](C#N)(c2ccc3c(N)ncnn23)[C@H](O)[C@@H]1O)C(=O)O` has a plasma half-life of ~1 h (human).
Under “grade ≥3 adverse event incidence”, `CCN1[C@@H](C(=O)NC23CCC(C(=O)O)(CC2)CC3)[C@H](c2cccc(Cl)c2F)[C@]2(C(=O)Nc3cc(Cl)ccc32)C12CCCCC2` is recorded as 87.5% (patients with advanced solid tumours; oral, 150 mg).
Under “serious adverse event incidence”, `COc1ccc(-c2c(-c3ccc(C#N)c(F)c3)nc(N3CCC(N)CC3)n(C)c2=O)cc1F` is recorded as 0% (item: Colitis; human patients; oral, 60 mg, dose expansion).
`CCN1CCN(Cc2ccc(Nc3ncc(F)c(-c4cc(F)c5nc6n(c5c4)[C@H](C)CCC6)n3)nc2)CC1`: “Hypercholesterolemia incidence, grade ≥3” 0% (advanced solid tumour patients; dose not given, Phase Ia monotherapy).
Under “grade 1 or 2 Hypertension”, `COc1cc2c(Oc3ccc4[nH]c(C)cc4c3F)ccnc2cc1OCC1(N)CC1` is recorded as 5.9% (paediatric recurrent refractory sarcoma; concentration not given, whole group).
For `COc1ncccc1-c1cnn2ccc(N3CCN(C(=O)OC(C)C)CC3)nc12`, “brain drug level” read “not detected” (rat, thermal hyperalgesia model, brain; 0.1 mg/kg, 180 min post-dose).
For `NCCCC[C@@H]1NC(=O)[C@@H](Cc2c[nH]c3ccccc23)NC(=O)[C@H](c2ccccc2)NC(=O)[C@@H]2C[C@@H](OC(=O)NCCN)CN2C(=O)[C@H](Cc2ccccc2)NC(=O)[C@H](Cc2ccc(OCc3ccccc3)cc2)NC1=O`, “subjects with abdominal pain” read 42% (healthy human volunteers; 1950 µg twice daily).
`Cc1cccc(N=Nc2ccc3[nH]cc(CCN(C)C)c3c2)c1` — result for “cis isomer at photostationary state”: 80% (light irradiation; solution; together with: light 385 nm).
For `CO[C@H]1C[C@@H]2CC[C@@H](C)[C@@](O)(O2)C(=O)C(=O)N2CCCC[C@H]2C(=O)O[C@H]([C@H](C)C[C@@H]2CC[C@@H](OC(=O)NCCOCCOCCOCCOCCOCCOCCOCCOCCC(=O)N3CCc4cc(Cn5nc(-c6ccc7oc(N)nc7c6)c6c(N)ncnc65)ccc4C3)[C@H](OC)C2)C[C@@H](O)[C@H](C)/C=C(\C)[C@@H](O)[C@@H](OC)C(=O)[C@H](C)C[C@H](C)/C=C/C=C/C=C/1C`, “maculopapular rash incidence” read 12.5% (patients with advanced solid tumours; intravenous, 10 mg weekly, any grade).
`Nc1ncnc2c1ncn2[C@@H]1O[C@@H]2COP(=O)([S-])O[C@@H]3[C@H](O)[C@@H](COP([O-])(=S)O[C@H]2[C@H]1O)O[C@H]3n1cnc2c(N)ncnc21.[Na+].[Na+]` (some centres unmarked) gave a lymphocyte percentage of 73 ± 1.96% (non-tumor-bearing mice, blood; intravenous, 1 mg/kg, toxicity study).
For `COc1ccc2nc3cc(Cl)ccc3c(Nc3cc(CN4CCCC4)c(O)c(CN4CCCC4)c3)c2n1`, “mean corpuscular volume” read 44.6 fL (mouse, blood; intraperitoneal, 14 mg/kg).
`CC(C)CC(=O)OC[C@H]1O[C@@](C#N)(c2ccc3c(N)ncnn23)[C@H](O)[C@@H]1O` has a fraction bound of 0.705 (monkey plasma; 0.9 µM).
`CCNCCCNC/C=C\CNCCCNCC` — result for “serious TEAE, nausea”: 6.5% (human, advanced solid tumours; intravenous, dose not given; relative to: patients).
For `COc1ccc2c(c1)CN(C(=O)CCN1CCC(Cc3ccccc3)CC1)CC[S@@+]2[O-]`, the QTcF was 302 ± 12 ms (female beagle dogs, chronic AV block; intravenous, 3 mg/kg, 3 h).
